Published values collected from several papers.
Compare with care: the assays were run in different laboratories. ± gives the spread as reported. Values after ≈ are worked out from the molar mass of the structure shown.

Cc1sc2ncn(CC(=O)N3CCCC3)c(=O)c2c1-c1cccc(Br)c1  γ3 conductance level area (NMDA receptor, mouse; single-channel current, outside-out patch; cortical neurons; 50 µM, added: Ca2+ 0.5 mM): 7%
CCN(CC)CCSC(=S)N1CCN(C(=O)/C=C/c2coc3cc(F)ccc3c2=O)CC1  EC50 (tomato spotted wilt virus; virus inactivation, half-leaf method; Nicotiana glutinosa; tested 31.25 to 500 µg/mL): 253 ± 8.9 µg/mL (≈ 529 µM)
CSc1cc(C)[nH]c(=O)c1CN1CCc2c(Cl)c3c(c(C)c2C1=O)OC(C)(C1CCC(N(C)C)CC1)O3 (stereo not shown)  H3K27me3 reduction (mouse KARPAS-422 xenograft, tumour; oral, 10 mg/kg once daily, day 12): 43%
COc1ccc(C2CC(c3ccc(C)cc3)=Nc3ccccc3S2)cc1 (stereo not shown)  AST (SGOT) (Wistar rat, STZ-induced diabetes, serum; 20 mg/kg, 28 days): 21.8 ± 2.16 IU/L
Cc1cc(O)c(C=O)c2c1C(=O)Oc1c(CO)c(O)c3c(c1O2)C(O)OC3=O (stereo not shown)  Ejaculatory latency (copulatory behaviour test; rat, male, streptozotocin-induced diabetes; 10 mg/kg, day 63): 828 ± 58.5 s
CN(C)CCSC(=S)N1CCN(C(=O)/C=C/c2coc3ccccc3c2=O)CC1  curative effect (tomato spotted wilt virus; viral infection, half-leaf method; Nicotiana glutinosa; 500 µg/mL): 62.1 ± 2.5%
CCOP(=O)(CC(=O)Nc1ccc(S(=O)(=O)N(CC(N)=O)c2ccc(N(CC(N)=O)S(=O)(=O)c3ccc(OC)cc3)c3ccccc23)cc1)OCC  HO-1 protein level (Western blot; APP/PS1 mice, hippocampus and frontal cortex; 40 mg/kg; baseline: untreated APP/PS1 mice): increased
O=c1c(-c2ccccc2)c[nH]n1-c1ccccn1  hematocrit and reticulocytes (mouse; dose not given): inactive
Cc1cc(=O)[nH]c2ccc(OCCCC(=O)N3CCCCC3)cc12  contraction force increase (rat, isolated spontaneously beating atria; 100 µM; baseline: baseline): 35 ± 5%
CC(=O)C12NC(C)(C)CC1(C)C(=O)C1=C2c2c(c3c4n2C(C)(C)CC2=C4C4(CC(C)(C)NC(C)(C4)C2=O)CC3(C)C)C(=O)C(C)(C)N1 (single isomer, unassigned; (+))  inhibition (acetic acid-induced writhing; mouse; intraperitoneal, 0.2 mg/kg, 0.5 h, writhes counted over 30 min): 61.5 ± 2.4%
CC(C)[C@H](NC(=O)CN)C(=O)N[C@@H](CCCCN)C(=O)NCC(=O)N[C@@H](CC(=O)O)C(=O)N[C@@H](CCCCN)C(=O)NCC(=O)N[C@@H](CC(N)=O)C(=O)N1CCC[C@H]1C(=O)NCC(=O)N[C@@H](Cc1c[nH]c2ccccc12)C(=O)N1CCC[C@H]1C(=O)NCC(=O)N[C@@H](C)C(=O)N1CCC[C@H]1C(=O)O  spreading cells (C6 glioma, rat; 100 µg/mL coating, peptide-coated plates): 82%
O=C(Nc1nc2cc(C(F)(F)F)cc(NC3CC3)n2n1)c1cccnc1  disease incidence (mouse, MOG-induced EAE; oral gavage, 30 mg/kg once daily; baseline: vehicle): no effect
COc1ccc2c(c1)c(CC(=O)OCOC(C)=O)c(C)n2C(=O)c1ccc(Cl)cc1  latency of nociceptive response (hot plate test; BALB/c mice; 75 mg/kg, 120 min): 15.9 ± 1.07 s
CSCCNc1nc(SCCC(F)(F)F)nc2c1ncn2[C@@H]1O[C@H](COP(=O)(O)OP(=O)(O)C(Cl)(Cl)P(=O)(O)O)[C@@H](O)[C@H]1O  high residual platelet reactivity (ADP-induced platelet aggregation, light transmittance aggregometry; human patients, platelet-rich plasma; dose not given, 15 min, aggregation above 59%, added: ADP 20 µM; baseline: patients): 58%
CC12CC(O)C3CC1(OC1OC(CO)C(O)C(O)C1O)C3(COC(=O)c1ccccc1)C(=O)O2 (stereo not shown)  ptosis score (pseudo-germ-free mice, reserpine model; 14 mg/kg, 7 days, scale up to 4; direction not given): 2.7
CC(=O)[O-].O.O.[O-]c1ccc(Br)cc1C=NCCN1CCOCC1.[Zn+2]  inhibition (DPPH radical scavenging; 240 µM): 61.1%
Cc1cc(N)c2ccccc2[n+]1CCCCCCCCCCCCCC[n+]1c(C)cc(N)c2ccccc21  colony growth ex vivo (NOD/SCID mice, SK-N-AS xenograft, tumour cells in methylcellulose; 2.5 mg/kg, 18 days): no effect
COc1ccc2c(c1)c(CC(=O)OCC(=O)OC(C)(C)C)c(C)n2C(=O)c1ccc(Cl)cc1  latency of nociceptive response (hot plate test; BALB/c mice; 50 mg/kg, 30 min): 14.3 ± 1.24 s
CCCS(=O)(=O)Nc1c(F)ccc(C(=O)c2n[nH]c3ncc(-c4ccncc4)cc23)c1F  regenerated liver volume (CT; pig, 80% hepatectomy; intravenous, 5 mg/kg every 12 h, 43 h after hepatectomy): 252 ± 13.6 mL
C=CC(=O)N1C[C@H](C)N(c2nc(OC[C@@]34CCCN3C[C@H](F)C4)nc3c(F)c(-c4ccc(F)c5sc(N)c(C#N)c45)c(C(F)(F)F)cc23)C[C@H]1C  ED90 (tumour growth; mouse, MIA PaCa-2 xenograft; oral, daily, 28 days): 1.8 mg/kg
CCCCCCCCCCCCCCCC(=O)NCCCC[C@H](N)C(=O)N[C@@H](CC(=O)O)C(=O)N[C@H](C(=O)N[C@@H](Cc1c[nH]cn1)C(=O)N[C@@H](Cc1ccccc1)C(=O)N[C@@H](CCCNC(=N)N)C(=O)N[C@H](C(=O)N[C@@H](Cc1ccccc1)C(=O)N[C@@H](CCCNC(=N)N)C(=O)N[C@@H](CO)C(=O)N[C@@H](Cc1c[nH]cn1)C(=O)N[C@@H](CO)C(=O)N[C@@H](CC(=O)O)C(=O)N[C@@H](Cc1ccc(O)cc1)C(=O)N[C@@H](CCCNC(=N)N)C(=O)N[C@@H](CCCNC(=N)N)C(=O)N[C@H](C(=O)O)[C@@H](C)CC)[C@@H](C)O)[C@@H](C)O  hepatic macrophage and T cells (immunohistochemistry, refers to: F4/80, CD3; C57BL/6J mice, MCD diet; 1.2 nmol/g, 3 weeks; baseline: vehicle): decreased
CC[C@H](C)[C@@H]1NC(=O)[C@H](Cc2ccc(O)cc2)NC(=O)[C@@H](N)CSSC[C@@H](C(=O)NCC(=O)N[C@@H](CCCCNC(=O)COCCOCCNC(=O)COCCOCCNC(=O)CC[C@H](NC(=O)CC[C@H](NC(=O)CCCCCCCCCCCCCCCCC(=O)O)C(=O)O)C(=O)O)C(=O)NCC(N)=O)NC(=O)[C@H](CC(N)=O)NC(=O)[C@H](CCC(N)=O)NC1=O  cumulative food intake (C57BL/6 mice, diet-induced obese; subcutaneous, 2 µmol/kg daily, 14 days): 29.4 ± 1.6 g
O=C(/C=C\n1cnc(-c2cc(C(F)(F)F)cc(C(F)(F)F)c2)n1)N1CC(F)(F)C1  cumulative disease score (mice, MOG35-55 EAE; oral, 75 mg/kg, 12 days, from hindlimb paralysis; baseline: vehicle, decrease): 60 ± 4.72%
CCOCc1nc(O)c(-c2nnc(Cc3ccc(Cl)cn3)o2)c(O)c1-c1c(OC)cccc1OC  heart rate change (renal hypertensive rat; oral, 0.1 mg/kg twice daily, day 7, trough; baseline: vehicle): -5%
C=C(c1ccc(C(=O)O)c(F)c1)c1cc2c(cc1C)C(C)(C)C=CC2(C)C  log2 fold change (RNA sequencing, refers to: Acot1 mRNA; rat, brain; dose not given, 24 h, single dose; baseline: vehicle): -1.14
Cc1cnc(C(=O)N[C@@H](Cc2cn(Cc3ccccc3)cn2)C(=O)N2CCC[C@H]2C(N)=O)cn1  sleeping time reduction (Swiss albino mice; iv, 10 µmol/kg, added: pentobarbital 50 mg/kg ip; baseline: control): 45.5%
CC/C=C\C/C=C\C/C=C\C/C=C\C/C=C\CCCCOC(CC)C(=O)O (stereo not shown)  hepatic arachidonic acid (APOE*3Leiden.CETP mice, high-fat/cholesterol diet; dose not given, 20 weeks; baseline: control): decreased
CC(C)NCCCn1c(Sc2cc3c(cc2I)OCO3)nc2c(N)ncnc21  apoptotic cells (TUNEL; OCI-Ly7 xenograft, SCID mouse; 75 mg/kg/day): 17%
COc1ccc(C2CC(c3ccc(C)cc3)=Nc3ccccc3S2)cc1OC (stereo not shown)  body weight (Wistar rat, STZ-induced diabetes; oral, 10 mg/kg once daily, day 7): 185 ± 4.39 g
C=C(c1ncc(C(=O)O)cn1)c1cc2c(cc1C)C(C)(C)CCC2(C)C  log2 fold change (RNA sequencing, refers to: Epha3 mRNA; rat, brain; dose not given, 24 h, single dose; baseline: vehicle): 0.34
Cc1c(C)c(C)[c-](C)c1C.O=C1c2cccc[n+]2[Ir]([Cl])[N]1CCCCCCCCCC[P+](c1ccccc1)(c1ccccc1)c1ccc2ccc3cccc4ccc1c2c34.[Br-]  yield (4-hydroxynonenal reduction; PBS/DMSO; 24 h, 37 °C, 1 mol% catalyst, added: excess sodium formate): 21%

A few entries again:
O=c1c(-c2ccccc2)c[nH]n1-c1ccccn1  hematocrit and reticulocytes (mouse; dose not given): inactive
Cc1cc(=O)[nH]c2ccc(OCCCC(=O)N3CCCCC3)cc12  contraction force increase (rat, isolated spontaneously beating atria; 100 µM; baseline: baseline): 35 ± 5%
CC(=O)C12NC(C)(C)CC1(C)C(=O)C1=C2c2c(c3c4n2C(C)(C)CC2=C4C4(CC(C)(C)NC(C)(C4)C2=O)CC3(C)C)C(=O)C(C)(C)N1 (single isomer, unassigned; (+))  inhibition (acetic acid-induced writhing; mouse; intraperitoneal, 0.2 mg/kg, 0.5 h, writhes counted over 30 min): 61.5 ± 2.4%
CC(C)[C@H](NC(=O)CN)C(=O)N[C@@H](CCCCN)C(=O)NCC(=O)N[C@@H](CC(=O)O)C(=O)N[C@@H](CCCCN)C(=O)NCC(=O)N[C@@H](CC(N)=O)C(=O)N1CCC[C@H]1C(=O)NCC(=O)N[C@@H](Cc1c[nH]c2ccccc12)C(=O)N1CCC[C@H]1C(=O)NCC(=O)N[C@@H](C)C(=O)N1CCC[C@H]1C(=O)O  spreading cells (C6 glioma, rat; 100 µg/mL coating, peptide-coated plates): 82%
